# Measurements collected from several papers.
# Numbers after ± are the reported error.
# B1: enzyme Y7A (Streptomyces parvus, UniProt A0A7K3RVR3); chain MYVPEQARPRDASWTLELIRSNPLALLVTNGPQHPWATHVPVLFAEEPDGPEGPDGLDATGDDLVGRRLLGHLNLMNPHWEALAGAGHALLVFQGPGSYVSPTVYETAPAAPTWDFTSVHVHGALRLIDDPDDLRKIVQATVRAYEREVGTDWDMSESLEYFERLLPGVRGFEIKIESVDSMFKLSQEQLPETVTKVIDSFRRSDGGRRQELATMIERAASD
# B2: enzyme T113A (Streptomyces parvus, UniProt A0A7K3RVR3); chain MYVPEQYRPRDASWTLELIRSNPLALLVTNGPQHPWATHVPVLFAEEPDGPEGPDGLDATGDDLVGRRLLGHLNLMNPHWEALAGAGHALLVFQGPGSYVSPTVYETAPAAPAWDFTSVHVHGALRLIDDPDDLRKIVQATVRAYEREVGTDWDMSESLEYFERLLPGVRGFEIKIESVDSMFKLSQEQLPETVTKVIDSFRRSDGGRRQELATMIERAASD
Molecule,tested on,assay,test system,conditions,how to read,quantity,result
O=C(O)CC[C@H](NC(=O)N[C@@H](CCCCNC(=O)[C@H](Cc1ccc2ccccc2c1)NC(=O)[C@H]1CC[C@H](CNC(=O)CN2CCN(CC(=O)O)CCN(C(CCC(=O)NCCC[P+](c3ccccc3)(c3ccccc3)c3ccccc3)C(=O)O)CCN(CC(=O)O)CC2)CC1)C(=O)O)C(=O)O (stereo partly shown) [terbium-161 labelled],,,,pH 7.4,,logD,-2.35 ± 0.02
CC(C)C[C@@H]1NC(=O)[C@H](CC(=O)O)NC(=O)CNC(=O)[C@H](CCCNC(=N)N)NC(=O)[C@H](Cc2ccccc2)NC(=O)[C@H](CCCCNC(=O)CCc2cn(CCCNC(=O)CCC(C(=O)O)N3CCN(CC(=O)O)CCN(CC(=O)O)CCN(CC(=O)O)CC3)nn2)N(C)C(=O)[C@H]2CCCN2C(=O)[C@H](Cc2ccccc2)NC(=O)[C@H](C)NC1=O (stereo partly shown),,,"female CB17 SCID mice, tumour and eye","intravenous, dose not given, 90 min, 177Lu-labelled",baseline: tumour over eye,tissue-to-tissue ratio,5 ± 1.4
CC[C@H](C)[C@H](NC(=O)[C@H](CO)NC(=O)[C@H](Cc1ccc(O)cc1)NC(=O)[C@H](Cc1ccc(O)cc1)NC(=O)[C@H](CC(N)=O)NC(=O)CNC(=O)[C@H](CO)NC(=O)[C@H](Cc1ccc(O)cc1)NC(=O)[C@H](CO)NC(=O)[C@H](CO)NC(=O)[C@H](CC(N)=O)NC(=O)COCCOCCNC(=O)CN1CCN(CC(=O)O)CCN(CC(=O)O)CCN(CC(=O)O)CC1)C(=O)N[C@@H](CC(C)C)C(N)=O [copper-64 labelled],,dynamic PET,"KPC mouse Ptf1a-CreER tdTomato, metastases","intravenous, dose not given, 4.5 min, 84 d after tamoxifen",,tissue uptake,15.7 %ID/mL
C[C@@H](O)[C@@H]1NC(=O)[C@@H](NC(=O)CCOCCOCCOCCOCCNC(=O)c2ccc(NN)nc2)CSSC[C@@H](C(=O)O)NC(=O)[C@H](Cc2c[nH]cn2)NC(=O)[C@H](CO)NC(=O)[C@H](Cc2ccccc2)NC(=O)[C@@H]2CCCN2C(=O)[C@H](CO)NC(=O)[C@@H]2CCCN2C1=O [technetium-99m labelled],,,"mouse, HCT-116 xenograft, kidney","intravenous, 37 MBq, postmortem after imaging",,tissue uptake,2.75 ± 0.74 %ID/g
B1 (enzyme Y7A),N[C@@H](CCCNO)C(=O)O,steady-state kinetics,,"pH 8, 25 °C, together with: heme",,Km,3620 µM
N=C(N)NCCC[C@@H]1NC(=O)[C@H](CCCCNC(=O)CCC(NC(=S)Nc2ccc(CC3CN(CC(=O)O)CCN(CC(=O)O)CCN(CC(=O)O)CCN3CC(=O)O)cc2)C(=O)NCCCC[C@@H]2NC(=O)[C@@H](Cc3ccc(O)cc3)NC(=O)[C@H](CC(=O)O)NC(=O)CNC(=O)[C@H](CCCNC(=N)N)NC2=O)NC(=O)[C@@H](Cc2ccc(O)cc2)NC(=O)[C@H](CC(=O)O)NC(=O)CNC1=O (stereo partly shown) [scandium-44 labelled],,PET imaging ROI,"female athymic nude mice, U-87 MG xenograft, muscle","intravenous, 4 h",,tissue uptake,0.31 ± 0.15 %ID/g
CC(C)C[C@@H]1NC(=O)[C@H](CC(=O)O)NC(=O)CNC(=O)[C@H](CCCNC(=N)N)NC(=O)[C@H](Cc2ccccc2)NC(=O)[C@H](CCCCNC(=O)CCc2cn(CCCNC(=O)CN3CCN(CC(=O)O)CCN(CC(=O)O)CCN(CC(=O)O)CC3)nn2)N(C)C(=O)[C@H]2CCCN2C(=O)[C@H](Cc2ccccc2)NC(=O)[C@H](C)NC1=O,,,"female CB17 SCID mice, tumour and blood","intravenous, dose not given, 90 min, 177Lu-labelled",baseline: tumour over blood,tissue-to-tissue ratio,4.4 ± 2.8
CCCC[C@H](NC(=O)[C@H](CCC(=O)O)NC(=O)[C@H](CCCCN)NC(=O)[C@H](CO)NC(=O)[C@H](Cc1ccccc1)NC(C)=O)C(=O)N[C@@H](CCCNC(=N)N)C(=O)N[C@@H](CC(N)=O)C(=O)N[C@@H](CCCNC(=N)N)C(=O)N[C@@H](Cc1ccc(O)cc1)C(=O)N[C@@H](Cc1c[nH]c2ccccc12)C(=O)N[C@@H](CCCC(=O)NCCN(CC(=O)NCCN(CC(=O)NCCN(CC(=O)NCCN(CC(N)=O)C(=O)Cn1cnc2c(=O)[nH]c(N)nc21)C(=O)Cn1ccc(N)nc1=O)C(=O)Cn1ccc(N)nc1=O)C(=O)Cn1cnc2c(=O)[nH]c(N)nc21)C(=O)N[C@@H](CS)C(=O)N[C@@H](C)C(=O)N[C@@H](CC(C)C)C(=O)N[C@@H](CC(=O)O)C(=O)N1CCC[C@H]1C(=O)N[C@@H](CC(N)=O)C(=O)N[C@@H](CC(C)C)C(=O)N[C@H](C(=O)N[C@@H](CC(N)=O)C(=O)N[C@@H](CCC(N)=O)C(=O)N[C@@H](CCC(N)=O)C(=O)N[C@@H](CCCCN)C(=O)N[C@@H](CCCNC(=N)N)C(=O)N[C@@H](C)C(=O)N[C@@H](CCCCNC(=O)CN(CCNC(=O)CN(CCNC(=O)CN(CCNC(=O)CN(CCNC(=O)[C@H](CCCNC(=N)N)NC(=O)CCCN(C)C(=O)c1ccccc1-c1c2ccc(=N)cc-2oc2cc(N)ccc12)C(=O)Cn1ccc(N)nc1=O)C(=O)Cn1cnc2c(=O)[nH]c(N)nc21)C(=O)Cn1cnc2c(=O)[nH]c(N)nc21)C(=O)Cn1ccc(N)nc1=O)C(=O)N[C@H](C(=O)N[C@@H](CCCNC(=N)N)C(=O)N[C@@H](CO)C(=O)N[C@H](C(=O)N[C@@H](Cc1ccc(O)cc1)C(=O)N[C@@H](CCC(=O)O)C(=O)N[C@@H](CCC(=O)O)C(N)=O)[C@@H](C)CC)[C@@H](C)CC)[C@@H](C)O,trypsin,"degradation of compound, LC-MS",,"40 µM, pH 7.5, 37 °C, 10% DMF, together with: trypsin 12.5 ng/mL",,half-life,6.15 ± 1.02 h
CN[C@H](CC(C)C)C(=O)N[C@H]1C(=O)N[C@@H](CC(N)=O)C(=O)N[C@H]2C(=O)N[C@H]3C(=O)N[C@H](C(=O)N[C@H](C(=O)N[C@@H](CCCNC(=N)N)C(N)=O)c4cc(O)cc(O)c4-c4cc3ccc4O)[C@H](O)c3ccc(c(Cl)c3)Oc3cc2cc(c3O[C@@H]2O[C@H](CO)[C@@H](O)[C@H](O)[C@H]2O[C@H]2C[C@](C)(NCc3ccc(OCc4cn(CC(=O)N[C@H](C(=O)N[C@@H](CCN)C(=O)N[C@H]5CCNC(=O)[C@H]([C@@H](C)O)NC(=O)[C@H](CCN)NC(=O)[C@H](CCN)NC(=O)[C@H](CC(C)C)NC(=O)[C@@H](CC(C)C)NC(=O)[C@H](CCN)NC5=O)[C@@H](C)O)nn4)c(OC)c3)[C@H](O)[C@H](C)O2)Oc2ccc(cc2Cl)[C@H]1O,sheep erythrocytes,,,"512 µg/mL, 37 °C",baseline: Triton X-100,hemolysis,< 5%
B2 (enzyme T113A),N[C@@H](CCCNO)C(=O)O,steady-state kinetics,,"pH 8, 25 °C, together with: heme",,Km,1710 µM
